Assay results gathered from unrelated publications.
Parts stem from different laboratories: compare values within a part only.

Series 1
Target: RING finger protein unkempt homolog, zinc fingers 1-6, SBP tag (UNK, Homo sapiens, UniProt Q9C0B0, residues 30-357)
UniProt Q9C0B0, sequence (30-357, looked up): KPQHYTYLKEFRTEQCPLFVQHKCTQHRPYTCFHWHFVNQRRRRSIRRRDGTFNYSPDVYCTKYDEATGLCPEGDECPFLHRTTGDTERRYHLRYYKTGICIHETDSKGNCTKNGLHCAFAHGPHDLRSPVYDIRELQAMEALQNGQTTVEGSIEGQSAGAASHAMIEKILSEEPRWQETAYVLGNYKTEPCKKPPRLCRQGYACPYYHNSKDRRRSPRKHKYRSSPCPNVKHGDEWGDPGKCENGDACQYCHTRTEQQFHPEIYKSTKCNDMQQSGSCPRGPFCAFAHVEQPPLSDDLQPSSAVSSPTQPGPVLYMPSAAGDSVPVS
Method: RNA Bind-n-Seq
Molecule type: RNA
Medium: in vitro
Concentration: 100 nM
Setting: RNA with constant flanks, vertebrate orthologous sites, ends assumed
Reference: input RNA pool
Direction: higher = stronger binding
Quantity: bound/input enrichment
Shared flanks, not repeated: GGGAGUUCUACAGUCCGACGAUC … CAACAGAGGAUUGAGCAUCA
GUACUGCCCGUGCAAAUCCCACAACACUGAAUGCAAAGUAGCAAUUUCCAUAGUCACAGUUAGGUAGCUUUAGGGCAAUAUUGCCAUGGUUUUAUUCAUGUGCAGGUUUUGAAAAUGUAC: 1.64 ratio
GUCAUCUGACUGGAUGAAGACUGUUCCAAGUUAUAACCAAACAAAUAGCUCCAUGGACUUUCGAAAUUAUAUGAUGAGAGAUGAGAAUUUGGAACCACUGCCCAAAAACUGGGAAAUGGC: 0.543 ratio
CAGGGAUGGCCCCAAUCCCACCUCUGUUUAUUCUGUAAACUUCAACCUGUAAAUAACGUUUAGCAUUCCUAUUGUAACAAAAUUAAUUUUUAUGAAAUAAAUUAUAUUUCCUAGUCUAAU: 1.04 ratio
UUCAGGCACAACUGACUGGUUCACAGCAUUCCUUACAUAGUUAUCUAUCAAAUGCAAAUGUAGUUAAUUUUCAGGAAACAAGCAGGCAGUCAUCUUUAUCCUGUAGCCCAAUUGGAGAGU: 1.77 ratio
ACUGUUGUUAAGCACUGUGUUCCAGACCGUGUCUGACUUAGUGUAACCUAGGAGAUUUUAUAGUUUUAUUUUAAUGAAAUCCUAAUUGACGCACAGCAGUGGGGAGAACAGCGUCUUUUA: 3.87 ratio
AUGUAGUUUGUUUUUAAUUUUGAGCAAAAUCUUAUUGUACUUGAAUGUGCCCUGUUUUGUUAGCACACCUAGACUUGCUGUAACUGUACUCAUGUCCCAGUAUGUACGUUCUUUCUAUGA: 1.06 ratio
ACACAUAUACGUACAUACAUACACAGGCACACAAAAUCUCUCCGGGGAGGUAUGUUUCUUGCAUAUUAAAAAAGCCAGCCAUUUUUAAGUAGAAGAGGGUUUUAGAUAGAUUAUAUGUGU: 1.29 ratio
UCCUGCUCCUGCCGGGGUGUGACCGAGGCUGAAGCAUCUACCAGGGCUGCAAGGGGUCCACGGUAUUUUUUUUUUUGCUGCCUUGGUCCCCAGAACCUUCAAGCAACAGUGGCUGUAGAU: 0.681 ratio
GAUGAAGAUGGUGGUUGUACAUUAUUUCAUUUAGAAAAUAUAAAAAUUUUGGUUUGAAGCUAGGUAUUAAACUGGAAUAGCUAUAUACCCCAGAGACUGGGGCAGUUGUGCCCUUCCCUU: 1.11 ratio
UCCUAGCACUUUGAUAAAAAGUGUGGACUGGUUGCUUGUAUUUUCUUUAUUCUUUUUAAUCAGCUUUAUUAUGUACGCUACUAUGCGAACUGAGAGCAUUCGAUGGCUAAUUCCAGGACA: 0.378 ratio
UUCUAGUACUUAAGCCAAUAGUUCUAAAAUGCUAUUUAUUUGUGUCUGUAAGUUUGUACAUAAUUCCAGCCUCAUUGUUGCGGAAUUAUUUUUUCAUGCAUUUGAGUUUUGCUUGAAAUU: 0.36 ratio

Series 2
Target: RNA binding protein fox-1 homolog 2, RRM domain, GST-SBP tag (RBFOX2, Homo sapiens, UniProt O43251-10, residues 100-194)
Method: RNA Bind-n-Seq
Molecule type: RNA
Medium: in vitro
Concentration: 365 nM
Setting: natural RNA segment, single round, ends assumed
Reference: no-protein control
Direction: higher = stronger binding
Quantity: RBNS enrichment (R)
Shared flanks, not repeated: GGGAGUUCUACAGUCCGACGAUC … UGGAAUUCUCGGGUGCCAA
Target sequence (chain): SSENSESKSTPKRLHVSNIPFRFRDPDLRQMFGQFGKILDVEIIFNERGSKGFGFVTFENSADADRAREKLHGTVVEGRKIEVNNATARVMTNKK
UCUGCUGCAGCUUGUGUAAAAGUGGGCAGUACACAAGUACGUCCCAAAGCCUGUGAGCAGUAUACGUGGAUGCUCACCCAUGAGAAGGAGCACACACGCCUCAUUCUCUG: 0.297
UUGUUUAGCUAGUGAAUGUGACAAUAUAUUUUAUGUAUAUAAUGAGUCUAAUGUAAUUUUGAUCAACUUGGUAAUGAUGUUAUUAAAUAGCAAAACAAGUGCAGUGUAUU: 3.5
CACUUGAUGGUGGUUUCCUGUGUUCCUGUGGCGCUGCUCCUGGGGGGAAGAGUGUGCUCUAGCAGGCCGUGAUCCCAGAGCCAGCAGGAUUGAUGACCAGGGCCCUUCCU: 0.325
UACUAGUGAAGUAAGAAAUUUUGCUUGUUGUUUUGCAAACCAAAUAGUUUCCUCAAACACAAAUCAGUGUUCCCACGAACAAGUUCCAGUUGAGAAACACUAAGGUUAUG: 0.301
GCUGGUCUUUGUCGCCUAAUUAGGGUAUCCUAGCUAUGUUCCAUUUCUAGUAAGGGGCUGUAGUUAGAUGACUCUUGUAUAGAUUUCAGUUACUUAUGCUGAAGAUCCCU: 0.209
AUCUUACACGAAAGCCACAGAGUUGAAAGCCACAGAGUUGAAAGCCACAGAGUUAAGUGACCUCAGGUAACAUAAUGGUGAUGGUUGGCCAUUUGAGUCUUUGUAACCUA: 0.42
AAAAGUUUUGGAUUUUGGAGCAUUUCGGAUUUUGGAUUUUUGGAUUAGGGUUGCUCAACCCAUAUUAUUGGCUGUACAUCCUGGUCACUUCUGACUUCUGUUUUUACUAA: 0.305
GUCUCUCUGGGCUGCAGAGUCUGCCCCACAUGUGGCCAUGGCCUCUGCAACUGCUCAGCUCUGGUCCAGGCCCUGUGGCAGGACACACAUGGUGAGCCUAGCCCUGGGAC: 0.426
CUUUAUAGUAUUUGAAAAUGAGAAGAAGCAGCAGAUUGUAAUUUGGUUUAUUGGAUGUGAUGGACGUUCUGUAAUAGAAAACCUGAAACGAUGAUUGAAUGGGAAAAAGA: 1.13
ACCAGAGGGAGAAGCCCGAUGCCCCAUCCCGGCUUUCCCGUAACGCACAGGACACGUGUGCAAUUCAUAGGAACGGCCCAGAUCGCCCUCAUGAGUGCCACCUGGUACAG: 0.443
UUCUUAUGAAAGUCUAGACUGUCUUACUGUGAAGAUGGCCAGGGAGGAUAGCAAGCAAUGGCAUUCUUGAACAGUCUAAGGCAGGUUUCUCAGUGUGGUCCUGAGAACAG: 1.07
UUGGUGCUGCUAAGUUUAGCCAUUAUGGUUUUUCCUUUCUCUCUCUUAAGCCUUAUUCUUCAACUAAAAGAUGAGGAUUAAGAGCAAGAAGUUGGGGGGGAUGUGAAAAU: 0.299

Series 3
Target: Ras GTPase-activating protein-binding protein 1, C-terminal RGG region (G3BP1, Homo sapiens, UniProt Q13283)
UniProt Q13283, sequence (whole entry, looked up): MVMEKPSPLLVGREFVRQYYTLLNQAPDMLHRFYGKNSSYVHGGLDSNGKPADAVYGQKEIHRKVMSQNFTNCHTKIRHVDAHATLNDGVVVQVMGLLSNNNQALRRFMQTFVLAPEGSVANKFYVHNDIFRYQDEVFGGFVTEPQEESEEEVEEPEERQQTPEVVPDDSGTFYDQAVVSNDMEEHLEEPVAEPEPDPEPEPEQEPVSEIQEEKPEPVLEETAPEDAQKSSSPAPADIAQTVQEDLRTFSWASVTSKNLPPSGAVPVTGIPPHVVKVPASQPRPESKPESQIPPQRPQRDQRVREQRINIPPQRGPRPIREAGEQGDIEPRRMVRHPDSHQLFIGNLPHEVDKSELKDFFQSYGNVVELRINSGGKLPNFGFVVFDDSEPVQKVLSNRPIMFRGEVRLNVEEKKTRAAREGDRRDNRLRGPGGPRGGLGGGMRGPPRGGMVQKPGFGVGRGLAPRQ
Method: RNA Bind-n-Seq
Molecule type: RNA
Medium: in vitro
Concentration: 1 µM
Setting: whole 134-nt RNA, ends assumed
Together with: 150 mM KCl
Reference: input library
Direction: higher = stronger binding
Quantity: log2 enrichment
Shared flanks, not repeated: GGGAGUUCUACAGUCCGACGAUC … UGGAAUUCUCGGGUGUCAAGG
UCUAUUCAUAAGAACCCCAACACAUCGGAGCCCCAACACCUGUUGGUGAUGAAGGGCGCCCCAGAAAGGAUCCUAGACCGUUGCAGCUCU: -1.11
UCAAGUCCUGUGCUACACAUCGUAUGUACCGAAUCGGGGAAGGAAGGGGAAGGGAAAGUAUUAUGUUACGCCGUUCGGAUCUGCACUUCC: 0.875
UUCAAAGCGUUCGAAUGAGGAGACUGAUGACUAUGGGAAGGCGCAGGUAGCCAAAAGCAGCAGCAAGGAAUCCAGGUCAUCCAAGCUCCA: -2.35
AGUCCUGUGCUACACAUCGUAUGUACCGAAUCGGGGAGGGGAAAAAAAGGGGUGGGGAAAGUAUUAUGUUACGCCGUUCGGAUCUGCACU: 1.89
GUCCUGUGCUACACAUCGUAUGUACCGAAUCGGGGAAAAAAAGGGGUUUGGGGUGGGGAAAGUAUUAUGUUACGCCGUUCGGAUCUGCAC: 2.32
GGUAUUCUGCAAGUACUGUAGAUGUUAUAGAAAUGAUGGAGGAUGAUAAAGUUGAUCUGAAUUUGAUUGUUGCCCUCAUCCGAUACAUUG: -2.05
UCCUGUGCUACACAUCGUAUGUACCGAAUCGGGCCCCCCGGCCCCCCGGGGCCCCCCGGGAAAGUAUUAUGUUACGCCGUUCGGAUCUGC: -0.594
CACAGACAACACGCACCCACACAGACACAAAAGGAAGGGGUUGGGAUGGGGACAGGGUGCACAGCAGGGCGGGGUAGGACCCCAGCCCCU: -0.25
CAAGUCCUGUGCUACACAUCGUAUGUACCGAAUCGGGAAAGGGAAAGGAAAGGGGAAAGUAUUAUGUUACGCCGUUCGGAUCUGCACUUC: -0.16
UUUGAAAAAGAAGAAAAAGAAAAAGAAGGGUAAGGCAUUAAAAAAGUCUUUAUAAAUUUUCUCCAAAAUAAAUGUUUGAUUUUAGCCCUA: -1.82
CCUCAAGUCCUGUGCUACACAUCGUAUGUACCGAAUCGGUGGGUGGGUGGGGAAAGUAUUAUGUUACGCCGUUCGGAUCUGCACUUCCAG: 1.11
UCCUGUGCUACACAUCGUAUGUACCGAAUCAAAUUUAAACCCCCCCAAACCCCCCCAAAAAAGUAUUAUGUUACGCCGUUCGGAUCUGCA: -0.59
UUGCUAACUUCAAGAUAGAGCCUCCUGGACUUUUCCGUGGCCGCGGCAACCACCCCAAGAUGGGCAUGCUGAAGAGACGAAUCAUGCCCG: -0.973
UAACUUUAGAGGAGGAUCUGAUGGAUAUGGCAGUGGACGUGGCUUUGGGGAUGGCUAUAAUGGGUAUGGAGGAGGACCUGGAGGUGGCAA: -0.948

Series 4
Target: Interferon regulatory factor 7, full length, phosphomimetic (IRF7, Homo sapiens, UniProt Q92985, residues 1-503, S101K/S471D/S472D/S475D/S476D/S477D/S483D/S484D/S487D)
UniProt Q92985, sequence (whole entry, unmodified, looked up): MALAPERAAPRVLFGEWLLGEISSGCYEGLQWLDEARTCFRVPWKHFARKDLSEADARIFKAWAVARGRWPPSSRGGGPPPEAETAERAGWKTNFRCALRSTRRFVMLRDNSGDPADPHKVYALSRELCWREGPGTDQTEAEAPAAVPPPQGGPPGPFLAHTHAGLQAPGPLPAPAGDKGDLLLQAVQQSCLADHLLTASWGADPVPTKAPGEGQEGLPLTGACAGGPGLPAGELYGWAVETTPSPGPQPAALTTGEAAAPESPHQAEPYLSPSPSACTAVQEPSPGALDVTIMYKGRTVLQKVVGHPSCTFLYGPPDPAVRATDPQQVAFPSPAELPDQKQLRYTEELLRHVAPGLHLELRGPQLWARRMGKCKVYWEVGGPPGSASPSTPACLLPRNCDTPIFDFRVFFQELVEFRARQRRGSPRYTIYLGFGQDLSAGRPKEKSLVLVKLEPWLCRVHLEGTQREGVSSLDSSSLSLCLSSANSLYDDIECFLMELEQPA
Method: protein-binding microarray
Molecule type: double-stranded DNA, one strand shown
Medium: in vitro
Concentration: 250 nM
Setting: 60-bp whole probe
Together with: salmon DNA 0.4 mg/ml
Reference: random background probes
Direction: higher = stronger binding
Quantity: log fluorescence
Shared flanks, not repeated: GCCTAGCAC … GTCTTGATTCGCTTGACGCTGCTG
TTCGGTTTCCTTTTCCTTTAGTGCTAG: 8.11 z-score
CTTTCCTTTGCTTTCTCCCAGTGCTAG: 2.5 z-score
TTAGAACTGGGGTTTCGCTTAGTGCTA: 3.42 z-score
TTAGGACTGGACTAACGGTTAGTGCTA: -0.42 z-score
GACGGTTCCGGTTTAGGGACGTGCTAG: 6.39 z-score
GACGGTATCGATACTGGGGACGTGCTA: 0.519 z-score
GACGGACTGGGGAATCGGGACGTGCTA: -0.322 z-score
AGAATTTTCATTAACTGTTAGTGCTAG: 0.00524 z-score
TTAGAATTGAGTATCGATTAGTGCTAG: 0.672 z-score
GACGATCTCGGTTTCGGGACGTGCTAG: 3.64 z-score
GGCGGTTTCGACTTTCGGGACGTGCTA: 10.6 z-score
TTAGTTTTCCTTTCCCTTTAGTGCTAG: 4.62 z-score
GACGGTTTCGACTATCGGGAAGTGCTA: 6.39 z-score
GACGGTCTCGACACTGGGGACGTGCTA: -0.089 z-score
GACGAACTGGGGTAGCGAGACGTGCTA: -0.798 z-score
TTAGGTCCCGGACTGGGTTAGTGCTAG: 0.273 z-score
GTGATGTGAGGGGAGAGGGAGTGCTAG: 0.0588 z-score
TTAGGTTTCGGGTTTCGGATAGTGCTA: 12.2 z-score
TCACCTTTGTTTTTTTCACTGTGCTAG: 0.739 z-score
GAATGTCTTCCCCTCTCTTTGTGCTAG: 0.384 z-score
TTTGCTTTCCTTCATGCACTGTGCTAG: 0.468 z-score
TCAACAGTTTTATTTTAGACTGTGCTA: 0.638 z-score
CAGGGTTTCAGATGCGTGAGGTGCTAG: 0.286 z-score
TCTCTGCTACCCTTTGAAAGTGTGCTA: -0.325 z-score
GACGGTCTCCTTCTCCTGAGGTGCTAG: 0.0782 z-score

Excerpt of the above (series 4):
GACGGACTGGGGAATCGGGACGTGCTA: -0.322 z-score
AGAATTTTCATTAACTGTTAGTGCTAG: 0.00524 z-score
TTAGAATTGAGTATCGATTAGTGCTAG: 0.672 z-score
GACGATCTCGGTTTCGGGACGTGCTAG: 3.64 z-score
GGCGGTTTCGACTTTCGGGACGTGCTA: 10.6 z-score
TTAGTTTTCCTTTCCCTTTAGTGCTAG: 4.62 z-score
GACGGTTTCGACTATCGGGAAGTGCTA: 6.39 z-score
